Results gathered from unrelated publications.
Lines come from different studies, so protocols differ. Numbers after ± are the reported error. In brackets after ≈: the same amount, converted by molar mass.

`C=C(NC(=O)c1csc(-c2nc3c(cc2O)-c2nc(cs2)C(=O)NC(C(C)O)C(=O)NC(=C(C)OC)c2nc(cs2)C(=O)NC2c4nc(cs4)C(=O)NC(COC(=O)c4c5c6c(cccc6n4O)COC(=O)C(OC4CC(C)(O)C(N(C)C)C(C)O4)C2OC5)c2nc-3cs2)n1)C(N)=O` (stereo not drawn) has a bacterial load of 6.46 log CFU/g (Streptococcus pneumoniae; -4, immunocompromised mice, lung infection, lung; 16 mg/kg/day once daily, 24 h post-dose).
For `CCn1c(C)c(CC(=O)N[C@@H](Cc2ccccc2)C(=O)N(C)c2cccc(F)c2)c2ccccc21`, the EC50 was 0.46 ± 0.2 µM (HIV-1; infectivity of progeny virus; HEK293FT, NL4-3).
Under “worm burden reduction”, `CCCCNC(CCCC)CSS(=O)(=O)O` (stereo not drawn) is recorded as -14% (Schistosoma mansoni; infected mice; 100 mg/kg x4, dosed from day 11, perfusion day 25; relative to: vehicle).
Under “viral titre reduction”, `CC(=O)O[C@@H]1[C@@H](OC(C)=O)[C@H](Sc2sc(C(=O)c3ccc(Cl)cc3)c(N)c2-c2nc3ccccc3s2)OC[C@H]1OC(C)=O` is recorded as 10% (hepatitis A virus; plaque reduction; HM 175; non-toxic concentration).
`O=C(NCC(O)(Cn1cncn1)c1ccc(F)cc1F)[c-]1cccc1.[Cl-].[Co+3].c1cc[cH-]c1` (racemic) has an inhibition of 0% (Brugia pahangi; motility, Worminator; adult female; 50 µM, 1 d).
`CC(=O)O[C@@H]1[C@@H](OC(C)=O)[C@H](Sc2sc(C(=O)c3ccc(Br)cc3)c(N)c2-c2nc3ccccc3s2)OC[C@@H]1OC(C)=O`: “viral titre reduction” 20% (hepatitis A virus; plaque reduction; HM 175; non-toxic concentration).
For `CCCOC(=O)N1c2cc(CNC)ccc2[C@H](NC(=O)C(=O)Nc2ccc(Cl)c(F)c2)[C@H]1CNC(=N)N`, the IC80 was 6.62 µM (Human immunodeficiency virus 1; viral infection, pseudovirus neutralization; TZM-bl, 191084 B7-19; clade A transmitted/founder).
The Emax of `C=C[C@]1(C)C[C@@H](OC(=O)CSc2ccc(NC(=O)c3ccco3)cc2)[C@]2(C)[C@H](C)CC[C@]3(CCC(=O)[C@H]32)[C@@H](C)[C@@H]1O` is reported as -1.07 log10 CFU/mL (Mycoplasma gallisepticum; sigmoid Emax model, AUC24h/MIC; infected chickens).
`Cc1ccc(C(=O)c2sc(S)c(-c3nc4ccccc4s3)c2N)cc1` — result for “viral titre reduction”: 20% (hepatitis A virus; plaque reduction; HM 175; non-toxic concentration).
`Cc1ncsc1-c1ccc(C(C)NC(=O)C2CC(O)CN2C(=O)C(NC(=O)CCCCCCCCCCN2CCCC(Nc3ncc(Cl)c(Nc4ccccc4S(=O)(=O)C(C)C)n3)C2)C(C)(C)C)cc1` (stereo not drawn): “log2 fold change” -1.45 (22Rv1; RNA-seq, refers to: MBTD1 mRNA; concentration not given; relative to: DMSO).
`FC(F)(F)c1cccc(CNc2nc(NC3CCN(Cc4ccccc4)CC3)c3nc[nH]c3n2)c1`: “log2 fold change” 0.011 (Cryptococcus neoformans; RNA-seq, refers to: CNAG_05384; wild type; 48 µg/mL, 3 h; relative to: untreated wild type).
`CC(C)NCC(SS(=O)(=O)O)c1ccccc1` (stereo not drawn): “mean worms recovered” 31 worms per mouse (Schistosoma mansoni; infected mice; 100 mg/kg x4, dosed from day 11, perfusion day 25).
`[2H]C([2H])([2H])C1(C([2H])([2H])[2H])NC(=O)N(c2ccc(F)c(C(C)(F)F)c2)C1=O`: “worm burden reduction” 100% (Schistosoma mansoni; juvenile stage, infected mice; oral, 50 mg/kg; relative to: untreated infected).
With `CC1=C(Cn2cc(CN3CCC(F)(F)CC3)nn2)C(=O)c2ccccc2C1=O` the killing was 44.6% (Schistosoma mansoni; adult worms; 25 µM, 48 h).
`Fc1ccc2c(c1)c1nc3ccc(Br)cc3c-1cn2Cc1cn(-c2ccccc2I)nn1` gave a fold change of 1.82 (Giardia duodenalis; UHPLC-Q-TOF-MS, refers to: PC(O-18:0/2:0); trophozoites; IC50, 0.1963 h; relative to: 0.25% DMSO).
The MIC of `CC1C=CC=CC(C)C2C=CC3CC(C)(O)C(Cl)C(C)C3C2C(=O)C(Cl)(Cl)C(=O)C(C)C(=O)O1` (stereo not drawn) is reported as 0.05 µg/mL (≈ 0.094 µM) (Staphylococcus aureus; MRSA clinical isolate; resistant: OXA,CIP,ERY,GEN,LVX,MXF,SXT,TOB).
The MIC of `CC1(C)[C@H](NC(=O)/C(=N\OCc2c(Cl)cccc2Cl)c2nsc(N)n2)C(=O)N1OS(=O)(=O)O` is reported as 1 µg/mL (≈ 1.85 µM) (Proteus mirabilis; agar dilution; ATCC 49565, susceptible).
Under “log2 fold change”, `COC1CN([C@H]2CC[C@H]([C@@]3(C)Oc4c(Cl)cc(C(=O)NCc5c(SC)cc(C)[nH]c5=O)c(C)c4O3)CC2)C1` is recorded as 1.48 (RNA-seq, refers to: FRMD4B; human, whole blood; dose not given, 24 h; relative to: pretreatment baseline).

For quick reference, copied from above:
With `CC1=C(Cn2cc(CN3CCC(F)(F)CC3)nn2)C(=O)c2ccccc2C1=O` the killing was 44.6% (Schistosoma mansoni; adult worms; 25 µM, 48 h).
